Experimental data of several laboratories.
Parts stem from different laboratories: compare values within a part only.
Chain of UniProt O75747 (whole entry, looked up): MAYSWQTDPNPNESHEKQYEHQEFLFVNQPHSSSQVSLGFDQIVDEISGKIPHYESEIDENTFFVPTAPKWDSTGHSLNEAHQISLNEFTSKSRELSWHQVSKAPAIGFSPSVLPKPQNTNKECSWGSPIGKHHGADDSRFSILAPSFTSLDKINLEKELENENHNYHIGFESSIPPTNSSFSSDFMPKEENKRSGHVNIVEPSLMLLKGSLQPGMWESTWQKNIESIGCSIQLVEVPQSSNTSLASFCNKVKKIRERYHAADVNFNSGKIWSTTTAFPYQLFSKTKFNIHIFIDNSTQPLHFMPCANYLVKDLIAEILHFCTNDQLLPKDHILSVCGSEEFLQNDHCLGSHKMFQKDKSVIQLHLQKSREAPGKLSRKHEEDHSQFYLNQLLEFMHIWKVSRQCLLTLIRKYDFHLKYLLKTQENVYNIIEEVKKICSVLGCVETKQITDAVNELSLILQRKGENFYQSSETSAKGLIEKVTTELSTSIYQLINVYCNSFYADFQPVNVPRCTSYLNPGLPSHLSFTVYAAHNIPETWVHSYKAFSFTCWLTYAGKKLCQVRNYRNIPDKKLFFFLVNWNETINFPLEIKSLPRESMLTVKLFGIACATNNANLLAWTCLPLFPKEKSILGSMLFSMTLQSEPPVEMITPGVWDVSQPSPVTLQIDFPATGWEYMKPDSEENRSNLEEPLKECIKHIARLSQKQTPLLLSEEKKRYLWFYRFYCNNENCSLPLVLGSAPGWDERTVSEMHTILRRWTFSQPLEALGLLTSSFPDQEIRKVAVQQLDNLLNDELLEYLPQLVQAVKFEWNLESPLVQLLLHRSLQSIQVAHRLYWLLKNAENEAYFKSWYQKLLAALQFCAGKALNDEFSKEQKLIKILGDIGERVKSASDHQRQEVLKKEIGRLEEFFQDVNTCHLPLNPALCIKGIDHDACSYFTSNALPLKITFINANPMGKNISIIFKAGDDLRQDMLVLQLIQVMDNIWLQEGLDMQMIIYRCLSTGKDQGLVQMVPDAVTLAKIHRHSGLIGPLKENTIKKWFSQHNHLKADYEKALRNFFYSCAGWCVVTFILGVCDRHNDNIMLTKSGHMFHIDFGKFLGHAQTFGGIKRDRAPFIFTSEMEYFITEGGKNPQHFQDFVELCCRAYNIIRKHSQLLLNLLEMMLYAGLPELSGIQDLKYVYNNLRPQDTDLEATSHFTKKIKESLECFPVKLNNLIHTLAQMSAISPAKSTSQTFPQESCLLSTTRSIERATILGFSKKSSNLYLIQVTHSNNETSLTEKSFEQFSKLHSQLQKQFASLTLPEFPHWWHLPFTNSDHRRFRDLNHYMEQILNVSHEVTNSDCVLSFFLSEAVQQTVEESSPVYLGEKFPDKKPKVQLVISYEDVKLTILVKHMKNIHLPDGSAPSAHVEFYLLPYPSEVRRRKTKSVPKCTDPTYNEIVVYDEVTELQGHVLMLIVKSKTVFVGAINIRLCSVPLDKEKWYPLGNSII
Chain of UniProt Q15569 (whole entry, looked up): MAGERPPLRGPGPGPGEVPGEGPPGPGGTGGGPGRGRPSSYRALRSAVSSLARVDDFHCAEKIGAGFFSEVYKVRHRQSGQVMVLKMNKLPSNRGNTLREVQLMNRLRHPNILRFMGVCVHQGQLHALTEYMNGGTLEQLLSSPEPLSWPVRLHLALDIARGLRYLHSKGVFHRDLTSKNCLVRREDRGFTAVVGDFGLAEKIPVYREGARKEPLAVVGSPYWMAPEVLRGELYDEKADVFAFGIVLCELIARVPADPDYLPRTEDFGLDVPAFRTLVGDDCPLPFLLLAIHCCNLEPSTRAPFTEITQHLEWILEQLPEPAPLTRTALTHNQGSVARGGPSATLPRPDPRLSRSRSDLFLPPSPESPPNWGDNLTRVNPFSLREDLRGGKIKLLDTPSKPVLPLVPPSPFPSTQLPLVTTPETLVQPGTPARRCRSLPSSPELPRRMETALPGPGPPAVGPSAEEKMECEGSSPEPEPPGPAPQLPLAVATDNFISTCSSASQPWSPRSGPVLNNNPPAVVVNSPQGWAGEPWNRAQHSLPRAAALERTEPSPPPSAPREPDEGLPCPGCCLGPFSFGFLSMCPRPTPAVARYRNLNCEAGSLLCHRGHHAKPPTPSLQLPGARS
Chain of UniProt P20794 (whole entry, looked up): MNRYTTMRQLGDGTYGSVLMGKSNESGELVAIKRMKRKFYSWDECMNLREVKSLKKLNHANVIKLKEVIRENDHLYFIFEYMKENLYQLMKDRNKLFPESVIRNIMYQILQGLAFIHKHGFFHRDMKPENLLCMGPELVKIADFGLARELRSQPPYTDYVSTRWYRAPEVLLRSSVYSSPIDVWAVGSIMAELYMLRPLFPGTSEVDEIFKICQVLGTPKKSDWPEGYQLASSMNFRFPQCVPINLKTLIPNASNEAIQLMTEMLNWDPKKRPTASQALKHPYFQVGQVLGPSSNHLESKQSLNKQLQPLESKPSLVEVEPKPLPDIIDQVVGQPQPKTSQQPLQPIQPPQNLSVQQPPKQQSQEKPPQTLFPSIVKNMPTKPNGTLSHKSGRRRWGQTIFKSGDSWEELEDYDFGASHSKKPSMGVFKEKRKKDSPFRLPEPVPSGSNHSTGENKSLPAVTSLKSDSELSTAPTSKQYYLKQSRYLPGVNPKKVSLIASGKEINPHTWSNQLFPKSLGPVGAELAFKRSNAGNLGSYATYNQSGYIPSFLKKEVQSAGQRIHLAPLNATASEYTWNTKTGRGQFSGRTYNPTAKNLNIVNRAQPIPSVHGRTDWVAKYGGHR
Chain of UniProt Q8TBX8 (whole entry, looked up): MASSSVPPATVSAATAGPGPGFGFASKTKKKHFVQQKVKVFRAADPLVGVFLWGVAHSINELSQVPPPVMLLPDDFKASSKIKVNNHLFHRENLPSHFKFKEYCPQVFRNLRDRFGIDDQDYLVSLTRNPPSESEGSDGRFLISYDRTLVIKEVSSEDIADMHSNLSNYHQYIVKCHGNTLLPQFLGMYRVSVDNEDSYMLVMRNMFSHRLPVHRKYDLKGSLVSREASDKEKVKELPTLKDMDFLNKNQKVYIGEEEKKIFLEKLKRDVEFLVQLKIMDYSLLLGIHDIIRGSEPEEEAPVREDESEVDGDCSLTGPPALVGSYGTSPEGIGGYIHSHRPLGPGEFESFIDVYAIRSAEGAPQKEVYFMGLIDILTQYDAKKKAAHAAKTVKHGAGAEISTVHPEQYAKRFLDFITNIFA
Chain of UniProt Q9UEE5 (whole entry, looked up): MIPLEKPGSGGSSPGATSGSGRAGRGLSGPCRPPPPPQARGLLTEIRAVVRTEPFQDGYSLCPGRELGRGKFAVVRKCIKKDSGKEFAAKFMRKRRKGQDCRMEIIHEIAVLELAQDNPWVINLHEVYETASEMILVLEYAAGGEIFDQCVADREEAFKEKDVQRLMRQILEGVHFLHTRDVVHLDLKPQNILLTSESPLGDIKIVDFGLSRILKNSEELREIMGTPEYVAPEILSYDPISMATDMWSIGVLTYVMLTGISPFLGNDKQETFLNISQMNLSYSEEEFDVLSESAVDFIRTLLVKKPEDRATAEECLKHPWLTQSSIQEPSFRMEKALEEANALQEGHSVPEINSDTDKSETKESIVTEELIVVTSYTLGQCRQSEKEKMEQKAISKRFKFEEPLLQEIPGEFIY
Chain of UniProt Q9Y6M4 (whole entry, looked up): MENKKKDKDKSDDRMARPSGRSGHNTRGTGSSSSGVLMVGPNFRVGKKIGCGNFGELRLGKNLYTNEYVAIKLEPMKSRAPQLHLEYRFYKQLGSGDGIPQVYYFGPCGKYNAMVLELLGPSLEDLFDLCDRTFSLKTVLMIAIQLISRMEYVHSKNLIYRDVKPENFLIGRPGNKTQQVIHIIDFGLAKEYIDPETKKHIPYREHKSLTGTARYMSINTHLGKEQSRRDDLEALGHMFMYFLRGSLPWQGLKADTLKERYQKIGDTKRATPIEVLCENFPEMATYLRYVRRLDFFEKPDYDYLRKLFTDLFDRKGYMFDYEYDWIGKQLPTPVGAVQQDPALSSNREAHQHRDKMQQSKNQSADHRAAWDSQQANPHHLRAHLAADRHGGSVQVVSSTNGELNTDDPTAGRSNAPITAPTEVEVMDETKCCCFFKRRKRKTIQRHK
Chain of UniProt O75385 (whole entry, looked up): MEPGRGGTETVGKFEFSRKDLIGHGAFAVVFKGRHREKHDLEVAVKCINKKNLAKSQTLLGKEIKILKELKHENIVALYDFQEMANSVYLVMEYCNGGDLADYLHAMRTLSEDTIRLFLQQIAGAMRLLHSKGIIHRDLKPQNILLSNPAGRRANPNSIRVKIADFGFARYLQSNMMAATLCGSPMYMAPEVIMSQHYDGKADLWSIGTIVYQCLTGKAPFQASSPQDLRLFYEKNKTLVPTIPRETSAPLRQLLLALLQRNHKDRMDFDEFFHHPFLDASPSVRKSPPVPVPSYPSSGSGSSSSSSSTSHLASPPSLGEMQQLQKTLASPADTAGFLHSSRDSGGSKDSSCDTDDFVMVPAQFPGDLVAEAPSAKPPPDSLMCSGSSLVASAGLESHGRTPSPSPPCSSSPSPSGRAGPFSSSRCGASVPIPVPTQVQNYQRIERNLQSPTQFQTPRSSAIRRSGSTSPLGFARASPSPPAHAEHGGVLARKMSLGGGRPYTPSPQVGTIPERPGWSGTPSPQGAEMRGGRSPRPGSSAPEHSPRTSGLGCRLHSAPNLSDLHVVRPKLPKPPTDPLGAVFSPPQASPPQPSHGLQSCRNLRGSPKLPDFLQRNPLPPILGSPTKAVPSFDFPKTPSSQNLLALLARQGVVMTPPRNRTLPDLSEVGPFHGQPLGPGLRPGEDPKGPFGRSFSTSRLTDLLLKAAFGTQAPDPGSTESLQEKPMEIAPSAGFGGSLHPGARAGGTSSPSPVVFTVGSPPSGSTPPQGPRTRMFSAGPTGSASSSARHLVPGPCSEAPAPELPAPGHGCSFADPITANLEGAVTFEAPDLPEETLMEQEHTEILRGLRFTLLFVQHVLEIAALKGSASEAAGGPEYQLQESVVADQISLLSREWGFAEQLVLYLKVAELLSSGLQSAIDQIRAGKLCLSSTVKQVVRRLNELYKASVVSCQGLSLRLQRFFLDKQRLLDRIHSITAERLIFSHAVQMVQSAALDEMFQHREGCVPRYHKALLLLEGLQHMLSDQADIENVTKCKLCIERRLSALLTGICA

Study 1
Target: Mitogen-activated protein kinase 12 (MAPK12, Homo sapiens, UniProt P53778)
Observed: enzyme activity
Mode: inhibitor
Concentration: 0.5 µM
Relative to: control
Target sequence (P53778 1-367): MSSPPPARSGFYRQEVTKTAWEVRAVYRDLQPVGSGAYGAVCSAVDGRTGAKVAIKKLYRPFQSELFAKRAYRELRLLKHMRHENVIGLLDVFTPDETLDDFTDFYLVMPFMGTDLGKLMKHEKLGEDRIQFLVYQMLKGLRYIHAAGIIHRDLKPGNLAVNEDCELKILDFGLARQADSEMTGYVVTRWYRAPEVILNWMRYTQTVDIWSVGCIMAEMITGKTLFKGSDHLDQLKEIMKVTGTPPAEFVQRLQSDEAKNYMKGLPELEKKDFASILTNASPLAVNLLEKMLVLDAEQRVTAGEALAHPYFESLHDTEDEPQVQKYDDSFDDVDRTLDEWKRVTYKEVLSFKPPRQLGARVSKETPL
The remaining activity of `Cc1cc2ncc(-c3ccccc3)nc2cc1C` is reported as 87.3%.
With `O=C(Nc1cccc(Nc2nccc(Nc3cccc(C(F)(F)F)c3)n2)c1)C1CC1` the remaining activity was 99.7%.
`Cc1cn(-c2cc(NC(=O)c3ccc(C)c(Nc4nccc(-c5cccnc5)n4)c3)cc(C(F)(F)F)c2)cn1` gave a remaining activity of 96.9%.
The remaining activity of `c1ccc(-c2[nH]ncc2-c2ccnc3ccccc23)nc1` is reported as 106%.
`CCN(CC)CCNC(=O)c1c(C)[nH]c(/C=C2\C(=O)Nc3ccc(F)cc32)c1C` gave a remaining activity of 95.8%.
For `O=C1c2ccccc2-c2n[nH]c3cccc1c23`, the remaining activity was 93.5%.
`N#Cc1c(NC(=O)c2cccc3ccccc23)sc2c1CCCC2` has a remaining activity of 95.6%.
The remaining activity of `N#C/C(=C\c1ccc(O)c(O)c1)C(=O)NCc1ccccc1` is reported as 94.2%.
The remaining activity of `c1ccc(-c2cnc(Nc3ccc(OCCN4CCCC4)cc3)s2)cc1` is reported as 93.6%.
`Cc1nc2cc3nc(-c4cccs4)cnc3cc2n1C` gave a remaining activity of 103%.
`CN([C@@H](Cc1ccc(OS(=O)(=O)c2cccc3cnccc23)cc1)C(=O)N1CCN(c2ccccc2)CC1)S(=O)(=O)c1cccc2cnccc12` gave a remaining activity of 92.2%.
For `O=C1C(Cl)=C(N2C(=O)CCC2=O)C(=O)c2ccccc21`, the remaining activity was 100%.
With `COc1cc2ncnc(Nc3ccc(O)c(Br)c3)c2cc1OC` the remaining activity was 92.8%.
The remaining activity of `CN(C)C[C@H]1CCn2c(c(C3=C(c4cn(C)c5ccccc45)C(=O)NC3=O)c3ccccc32)C1` is reported as 102%.
`Ic1cccc(CSc2nnc(-c3ccncc3)o2)c1` gave a remaining activity of 93%.
`COc1cc2c(cc1OC)-c1[nH]nc(Nc3cccc(F)c3)c1C2` gave a remaining activity of 101%.
`COc1cc2ncnc(Nc3cccc(Cl)c3)c2cc1OC` has a remaining activity of 98.5%.
The remaining activity of `CCOc1nc(NC(=O)Cc2cc(OC)ccc2OC)cc(N)c1C#N` is reported as 94.7%.
The remaining activity of `Cn1nc2c3c(cccc31)C(=O)c1ccccc1-2` is reported as 93.8%.
The remaining activity of `CCN(CC)C(=O)c1ccc(Nc2nc(OCC3CCCCC3)c3[nH]cnc3n2)cc1` is reported as 99.4%.
For `O=c1cc(-c2cccc3c2Sc2ccccc2S3)oc(N2CCOCC2)c1`, the remaining activity was 114%.
`CCN(CC)CCNC(=O)c1c(C)[nH]c(/C=C2\C(=O)Nc3ccc(Cl)cc32)c1C` has a remaining activity of 96.6%.

Study 2
Cell line: mouse MPNST tumor cells
Technique: high-content immunofluorescence imaging
Item: nuclear SOX9
Concentration: 10 µM
Time: 12 h
Setting: mean of 2 replicates
Relative to: DMSO control
Reading: higher = more nuclear SOX9
`CNC[C@H](O)[C@@H](O)[C@H](O)[C@H](O)CO` — result for “nuclear SOX9 intensity”: 80.8 % of DMSO.
`CCCn1c(=O)[nH]c2nc(-c3ccc(S(=O)(=O)O)cc3)[nH]c2c1=O` — result for “nuclear SOX9 intensity”: 104 % of DMSO.
`O=C(NCCO[N+](=O)[O-])c1cccnc1` — result for “nuclear SOX9 intensity”: 98.1 % of DMSO.
`OCc1ccc(-c2nn(Cc3ccccc3)c3ccccc23)o1` — result for “nuclear SOX9 intensity”: 112 % of DMSO.
Under “nuclear SOX9 intensity”, `O=C(O)/C=C/c1ccc(Cn2ccnc2)cc1` is recorded as 97 % of DMSO.
`CCCCN(CCCC)C(=O)CN1C[C@H](c2ccc3c(c2)OCO3)[C@@H](C(=O)O)[C@@H]1c1ccc(OC)cc1` — result for “nuclear SOX9 intensity”: 96.1 % of DMSO.

Study 3
Host: mouse
Matrix: microsomes or S9
Concentration: 2 µM
Time: 0.5 h
`CC(C)COc1cc(=O)n2c(c1C(=O)NC1CCN(C)CC1)CCCCC2` gave a remaining compound of 79%.
For `O=C(NCc1ccccc1)c1cnc2ccc(S(=O)(=O)Nc3ccc4c(c3)OCCO4)cc2c1O`, the remaining compound was 0.0532%.
The remaining compound of `Cc1ccc(CSC2=NS(=O)(=O)c3ccccc32)cc1` is reported as 0.201%.
`CCN(C(=O)COC(=O)c1cc2c(C)nn(-c3ccccc3)c2s1)c1cccc2ccccc12` gave a remaining compound of 0.96%.
The remaining compound of `N=C(N)NC(=O)c1cc2c(-c3cccc(Cl)c3)cccc2s1` is reported as 47.2%.
The remaining compound of `Cc1nc(C(C)C)sc1C(C)NCC1CCCS1(=O)=O` (stereo not drawn) is reported as 16.3%.
`O=C(NCC1COc2ccccc2O1)c1c(-c2cncnc2)cc(=O)n2c1CCCC2` (stereo not drawn) has a remaining compound of 46.6%.

Study 4
SMILES: FC(F)(F)c1ccc2c(c1)nc(-c1cccnc1)n2C1CC1
Observed: cell-free assay
Technique: competition with immobilised ligand
Concentration: 1 µM
CAMK1D (Homo sapiens, UniProt Q8IU85) — remaining binding: 100%.
CDK18 (Homo sapiens, UniProt Q07002) — remaining binding: 100%.
The remaining binding was 100% (ALK (Homo sapiens, UniProt Q9UM73, L1196M)).
The remaining binding was 100% (CSNK1G3 (Homo sapiens, UniProt Q9Y6M4)).
For RIOK1 (Homo sapiens, UniProt Q9BRS2): remaining binding read 100%.
It gave 100% for remaining binding (FRK (Homo sapiens, UniProt P42685)).
FLT3 (Homo sapiens, UniProt P36888, F691L/ITD) — remaining binding: 100%.
For ULK1 (Homo sapiens, UniProt O75385): remaining binding read 100%.
MAK (Homo sapiens, UniProt P20794) — remaining binding: 100%.
The remaining binding was 100% (SLK (Homo sapiens, UniProt Q9H2G2)).
It gave 100% for remaining binding (TLK2 (Homo sapiens, UniProt Q86UE8)).
It gave 100% for remaining binding (ZAP70 (Homo sapiens, UniProt P43403)).
It gave 100% for remaining binding (MARK1 (Homo sapiens, UniProt Q9P0L2)).
The remaining binding was 100% (MYLK3 (Homo sapiens, UniProt Q32MK0)).
The remaining binding was 83% (PRKCI (Homo sapiens, UniProt P41743)).
It gave 93% for remaining binding (MAPK8 (Homo sapiens, UniProt P45983)).
For PIK3C2G (Homo sapiens, UniProt O75747): remaining binding read 100%.
It gave 100% for remaining binding (TESK1 (Homo sapiens, UniProt Q15569)).
It gave 100% for remaining binding (PIP4K2C (Homo sapiens, UniProt Q8TBX8)).
It gave 100% for remaining binding (NUAK1 (Homo sapiens, UniProt O60285)).
It gave 100% for remaining binding (STK17A (Homo sapiens, UniProt Q9UEE5)).
It gave 84% for remaining binding (DCLK1 (Homo sapiens, UniProt O15075)).
The remaining binding was 85% (PIP5K1C (Homo sapiens, UniProt O60331)).
PRKCE (Homo sapiens, UniProt Q02156) — remaining binding: 97%.
For MAP3K20 (Homo sapiens, UniProt Q9NYL2): remaining binding read 100%.
